Measurements collected from several papers.
Each numbered part is a random draw from the data of one study; scales do not carry over between parts. Substitutions count along the parent as printed.

Block 1 — target: CCND3, cyclin fold, Cln2 fusion (human); method: yeast growth competition, sequencing; sample: yeast; setting: weak parent motif; baseline: not given; reading: higher = stronger binding
Starting sequence: GMNC docking peptide (human); KNAKRNLSSEFAN
Under “normalised enrichment score”, `S8F` is recorded as 0.239.
Under “normalised enrichment score”, `K4E` is recorded as -0.329.
For `F11L`, “normalised enrichment score” read 0.141.
`K4A` — result for “normalised enrichment score”: 0.281.
Under “normalised enrichment score”, `F11K` is recorded as -0.117.
`E10W`: “normalised enrichment score” 0.437.
Under “normalised enrichment score”, `K4L` is recorded as 0.338.
`A3N`: “normalised enrichment score” 0.121.
For `S8I`, “normalised enrichment score” read -0.046.
`A3Y` — result for “normalised enrichment score”: 0.349.
`F11G` — result for “normalised enrichment score”: 0.286.
`K4D`: “normalised enrichment score” 0.079.
Under “normalised enrichment score”, `S8W` is recorded as 0.161.
For `S8D`, “normalised enrichment score” read 0.172.
Under “normalised enrichment score”, `N2R` is recorded as 0.648.
`L7P` — result for “normalised enrichment score”: 0.096.
`F11D` — result for “normalised enrichment score”: 0.407.
`N6R` — result for “normalised enrichment score”: 0.0267.
`F11T` — result for “normalised enrichment score”: 0.491.
`N6Q`: “normalised enrichment score” -0.0495.
`F11I` — result for “normalised enrichment score”: -0.147.
`S9L` — result for “normalised enrichment score”: -0.224.
`E10K` — result for “normalised enrichment score”: 0.121.
`A12C`: “normalised enrichment score” 0.056.
For `A12Y`, “normalised enrichment score” read 0.234.

Block 2 — method: protein binding microarray; form: double-stranded DNA, one strand shown; sample: in vitro; tested at: not given; baseline: not given; reading: higher = stronger binding
Target: Histone acetyltransferase KAT6A, winged helix 2, GST fusion (KAT6A, Homo sapiens, UniProt Q92794, residues 85-181)
Setting: 8-mer, flanks averaged, mean of 2 arrays, mostly near background
Residues (chain): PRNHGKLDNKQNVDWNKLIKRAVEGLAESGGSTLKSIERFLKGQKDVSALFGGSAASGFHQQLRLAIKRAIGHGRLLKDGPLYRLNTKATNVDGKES
`GTTAACAA` has an E-score of -0.0387.
With `CCCCCGAA` the E-score was -0.0487.
The E-score of `CTTCAAAA` is reported as 0.146.
For `TCTTACAA`, the E-score was -0.0401.
`CCATGGGG` has an E-score of 0.117.
`ATAGCACG` gave an E-score of -0.214.
`CGCCGACG` gave an E-score of 0.135.
`CAGCCGTA` gave an E-score of -0.0211.
`CCGCACTC` has an E-score of 0.161.
The E-score of `GTAATGGA` is reported as 0.0577.
`ACCCTTCT` gave an E-score of -0.109.
The E-score of `AATAGATG` is reported as -0.0414.
`GCAGTATA` has an E-score of -0.051.
With `GGCAATTA` the E-score was -0.0289.
The E-score of `GCTCTCCC` is reported as 0.0928.
For `CCAGGGTC`, the E-score was 0.0261.

Block 3 — method: RNA Bind-n-Seq; form: RNA; sample: in vitro; tested at: 365 nM; baseline: no-protein control; reading: higher = stronger binding
Target: RNA binding protein fox-1 homolog 2, RRM domain, GST-SBP tag (RBFOX2, Homo sapiens, UniProt O43251-10, residues 100-194)
Setting: natural RNA segment, single round, ends assumed
Target sequence (chain): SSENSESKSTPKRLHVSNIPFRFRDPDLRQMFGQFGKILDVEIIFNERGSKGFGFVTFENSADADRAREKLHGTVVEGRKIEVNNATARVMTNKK
`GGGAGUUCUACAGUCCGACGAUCUAAAAUUAUUCCCAAAAGUGUUUCUCCUAAGAGUGCAGUUCCCAUGAGUCACUUCCUGAACCCAUUGACCAAAGGUGGACAGAGACAAUCCUGUAGACCUUGACAUUCAGUGGAAUUCUCGGGUGCCAA` — result for “RBNS enrichment (R)”: 0.294.
Under “RBNS enrichment (R)”, `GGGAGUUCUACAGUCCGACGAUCAUACAUAUAUACACACUCCUAACAUUCCCACUCGGGAGGCCAAGGCCAGCACAUCUCUAAAUUUGAGGCCAGCCUGCUCUACAAAAAGAAUACCAUUCCAGCCAAAGCUAUGGAAUUCUCGGGUGCCAA` is recorded as 0.543.
For `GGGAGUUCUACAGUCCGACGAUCGAAAAGGGUGCUCGGACUCUCUUAUACACAUGUGCUUUGUGUAAAUAAAUGUUUACAAUUUUAUAUUGAAGAUGGAAUAAGUGUUAGAGCGUCCAACUGUAUAUUUUUUAUGGAAUUCUCGGGUGCCAA`, “RBNS enrichment (R)” read 0.614.
Under “RBNS enrichment (R)”, `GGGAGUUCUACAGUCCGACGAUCUUUAAAAGAAAAGAAGAAAAAAAACACCCAACCACACAAAGAACAAAACCAGUAACAAACACAAAGGAAUUCAGGGUCGCUUUGCUUGCUCUCUGUGCUCCGUGGAGGCCUGGAAUUCUCGGGUGCCAA` is recorded as 0.409.
`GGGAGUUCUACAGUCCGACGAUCCACUAUUGGUAAUAAAAUAACAAAUGUUUGUGCAUUUUUAUGUGAAGAUCCUUCUCGUAUUUCAUUUGGAAAGAUGAGCAAGAGGUCUGCUUCCUUCAUUUUACUUCCCCUGGAAUUCUCGGGUGCCAA`: “RBNS enrichment (R)” 0.504.
`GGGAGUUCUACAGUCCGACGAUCAAUUCAGGGUCUCAUUUGGAACAUUUUUCCUUUGGGUAGUGGUCAGGAACUGGUGUAAGUCCUCCAGACACAUCCCUGUGUAAGGAAGCCAGGCACUGUUUCUCUGAGUUUGGAAUUCUCGGGUGCCAA` — result for “RBNS enrichment (R)”: 0.269.
For `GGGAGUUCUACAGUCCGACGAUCACACACAUUAUGGCUGUAAAUACCUGGCUCCUGCCAGCAGCUGAGCUGGGUAGCCUCUCUGAGCUGGUUUCCUGCCCCAAAGGCUGGCUUCCACCAUCCAGGUGCACCACUGGAAUUCUCGGGUGCCAA`, “RBNS enrichment (R)” read 0.34.
For `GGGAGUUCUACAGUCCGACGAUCUUAGCUUAAAUUGUAACCUUUUGUUGUGUAUAUAAAACUUCCUUGGAAGAAAAUAACCUUAUUGUUUUCUUAAAGCUAAACAGAAUAGGAUUGGUACUCAUUAAUUAUGUUGGAAUUCUCGGGUGCCAA`, “RBNS enrichment (R)” read 0.428.

Block 4 — method: RNA Bind-n-Seq; form: RNA; sample: in vitro; tested at: not given; baseline: input RNA pool; reading: higher = stronger binding
Target: RING finger protein unkempt homolog, zinc fingers 1-6, GST-SBP tag (UNK, Homo sapiens, UniProt Q9C0B0, residues 30-357)
Sequence of UniProt Q9C0B0 (30-357, looked up): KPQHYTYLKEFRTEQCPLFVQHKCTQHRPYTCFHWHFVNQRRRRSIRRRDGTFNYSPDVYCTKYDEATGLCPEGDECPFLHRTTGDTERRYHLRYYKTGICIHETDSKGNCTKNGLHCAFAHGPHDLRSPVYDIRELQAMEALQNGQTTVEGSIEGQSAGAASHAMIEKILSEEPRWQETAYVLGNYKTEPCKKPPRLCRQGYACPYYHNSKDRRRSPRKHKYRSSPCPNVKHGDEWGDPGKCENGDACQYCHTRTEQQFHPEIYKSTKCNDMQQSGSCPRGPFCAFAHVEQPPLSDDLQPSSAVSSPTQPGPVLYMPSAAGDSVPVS
Setting: RNA with constant flanks, human and mouse sites, ends assumed
With `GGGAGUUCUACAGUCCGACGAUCGUUCGCUUGUAUCGUAAAGCAUUAGAAGUCUUCCCAGAGUUUGCUGCUGCCCAUUCAAAUUUAGCAAGUGUACUGCAGCAGCAGGGAAAACUGCAGGAAGCUCUGAUGCAUUAUAAGGAGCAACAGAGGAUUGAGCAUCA` the bound/input enrichment was 0.258 ratio.
`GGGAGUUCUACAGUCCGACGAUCUUACAGCCAUGAAAAUGUGUCGGUUAUUCCUAAUUGUCAGUUCCGGUCAAAAACAGCACGUCUUAAAACUUUUACUGCCAACCAGAUAGAUGAAAUAAAAGACCCUUCUGGACUCUUUUACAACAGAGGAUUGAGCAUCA` has a bound/input enrichment of 0.237 ratio.
The bound/input enrichment of `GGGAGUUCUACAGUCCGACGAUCUUGGAAGGACCAGAGCCUAAUCAACUGAAACCAUUAGUCAUACAGGCUAUGCCCACCCUAAUAGAACUAAUGAAAGACCCCAGUGUAGUUGUUCGAGACACAACAGCGUGGACUGUGGGCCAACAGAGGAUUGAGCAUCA` is reported as 0.339 ratio.
For `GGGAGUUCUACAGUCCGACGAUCUACAUCCAGAGCUUCCGGGACCGGCAGACUGGGAGCUCUCUGAGUUCCUUCAUGGCCUCCCCUACAGACACGGACUAUGAGUAUGGGUCCCGGGGACCACUGACAGCCUGCUCGGGACCCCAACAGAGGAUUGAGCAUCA`, the bound/input enrichment was 0.258 ratio.
For `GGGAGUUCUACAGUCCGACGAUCGUUGGAAGUCUGGUUAGAGUCCCCAGAGAGUUACUCUAAGUUAAAAUGAGCCACUGACCUUGGCUCACCUUAGAGGAAUUUCCUCGAGAACAACAGAGAUAAGAAAAGAACCGGCCUGGCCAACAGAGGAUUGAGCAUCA`, the bound/input enrichment was 0.301 ratio.
`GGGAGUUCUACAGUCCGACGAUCCCGAUGGUUCUUUCUUUUGCUCAGUGGAGUUGGAGGUUUUGUGUUUGGUUUUCUCAUUCUUGUCUUGUUUUGUGUGGGUGGAUUUUCACCGACCAAUGAUAUCCUCUUCUGACGGUCACCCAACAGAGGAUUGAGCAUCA` gave a bound/input enrichment of 0.313 ratio.
For `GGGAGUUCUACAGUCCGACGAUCUUGUUUAAUAUUUAGAAGCACACAAAAAAGAGGAGAAUCGUUUGGAAUCAGCAGAAUAGGUAGCAAAAUUAAAGGCGUAUUCAAGAGUACGACAAUGGAGGGAGCUGUGCUGCCUAAUUACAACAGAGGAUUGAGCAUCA`, the bound/input enrichment was 1.74 ratio.
The bound/input enrichment of `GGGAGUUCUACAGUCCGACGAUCGUUUUCAGUCUCUUCCUGUCCUGAGUUUUAUUAAGAAAUCCUUUUUUCUUUUUCUUCUUUUUAGGGGAUAUAUAGUAAUAUUAGUGUAAAGAUUUUAAUUUGGGCAACUUUGACUCUUAACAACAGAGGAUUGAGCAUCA` is reported as 5.54 ratio.

Some of these lines once more (block 2):
`GTTAACAA` has an E-score of -0.0387.
`CCGCACTC` has an E-score of 0.161.
For `CCAGGGTC`, the E-score was 0.0261.
With `GGCAATTA` the E-score was -0.0289.
The E-score of `GCTCTCCC` is reported as 0.0928.
The E-score of `AATAGATG` is reported as -0.0414.
